Measured values gathered from unrelated publications.
Lines come from different studies, so protocols differ. Several values in a cell are separate wells, animals, samples, runs or records. ± gives the spread as reported.
UniProt O00425, sequence (whole entry, looked up): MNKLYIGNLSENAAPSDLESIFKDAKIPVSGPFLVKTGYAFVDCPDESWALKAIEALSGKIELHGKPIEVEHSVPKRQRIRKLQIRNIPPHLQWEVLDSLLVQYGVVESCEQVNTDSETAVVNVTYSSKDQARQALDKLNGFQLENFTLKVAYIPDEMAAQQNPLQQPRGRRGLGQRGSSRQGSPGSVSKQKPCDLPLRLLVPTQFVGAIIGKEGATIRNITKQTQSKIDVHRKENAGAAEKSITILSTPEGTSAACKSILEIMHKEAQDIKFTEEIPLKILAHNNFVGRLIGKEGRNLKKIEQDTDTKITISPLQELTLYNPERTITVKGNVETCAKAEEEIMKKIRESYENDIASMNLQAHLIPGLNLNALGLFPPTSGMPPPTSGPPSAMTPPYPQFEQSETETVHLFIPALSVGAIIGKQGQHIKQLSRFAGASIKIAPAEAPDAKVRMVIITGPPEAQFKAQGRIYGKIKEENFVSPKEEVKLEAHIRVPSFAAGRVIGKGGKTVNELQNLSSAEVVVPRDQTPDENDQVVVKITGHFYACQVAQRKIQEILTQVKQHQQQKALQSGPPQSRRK

Structure (SMILES) | tested on | test | test system | setting | how to read | measurement | value
OC(Cn1cncn1)(Cn1cncn1)c1ccc(F)cc1F | Saccharomyces cerevisiae | cell growth | Pdr5 deleted, empty vector | 2^-4.322 µg/mL |  | OD600 | 1.02 and 1 and 0.999
O=C(NNc1ccc(F)c(F)c1)c1nnc(CC23CC4CC(CC(C4)C2)C3)o1 | Fusarium graminearum | fungal growth, inhibitor |  |  |  | EC50 | 0.92 ± 0.03 µg/mL
COc1cc(NC(=O)Cn2ccc3cc(F)c(-c4cnn(C)c4)cc32)cc(OC)c1OC | Plasmodium falciparum |  | recrudescent Dd2-B2, PfATP4 V178I | flask 2 | relative to: Dd2-B2 | IC90 fold shift | 130
Nc1ncc(Br)c2c1ncn2[C@@H]1C=C(CO)[C@@H](O)[C@H]1O | vesicular stomatitis virus | viral mRNA cap methylation | wild type, GFP-expressing | concentration not given |  | methylated mRNA cap level | decreased
Nc1nc(N)c2nnn([C@@H]3C(F)=C(CO)[C@@H](O)[C@H]3O)c2n1 | influenza virus | viral cytopathic effect, MTT | MDCK | 72 h |  | EC50 | > 100 µM
CS(=O)(=O)Nc1ncn(-c2cc(F)c(COc3ccc(OS(=O)(=O)F)cc3)c(F)c2)n1 | Mycobacterium tuberculosis |  | NIH_G36, drug-resistant, lineage 2 |  |  | MIC | 9.8 nM
Nc1ncnc2c([C@@H]3N[C@H](CO)[C@@H](O)[C@H]3O)c[nH]c12 | vesicular stomatitis virus | viral replication | Vero 76 |  |  | IC50 | 14.9 µM
CCCCCCCCCCCC(=O)OC[C@H]1O[C@@H](n2cc(C)c(=O)[nH]c2=O)C[C@@H]1OC(=O)c1ccc(C(C)(C)C)cc1 | Salmonella enterica serovar Typhi | broth microdilution |  |  |  | MIC | 0.5 µg/mL
Nc1ccn(C[C@@H](CO)OCP(=O)(O)O)c(=O)n1 | vesicular stomatitis virus | viral replication | HEL |  |  | EC50 | > 250 µM
O=C(NNc1cccc(Cl)c1)c1nnc(CC23CC4CC(CC(C4)C2)C3)o1 | Fusarium graminearum | fungal growth, inhibitor |  | 50 µg/mL |  | inhibition | 74.2 ± 0.7%
CCOC(=O)C1=C[C@@H](OC(CC)CC)[C@H](NC(C)=O)[C@@H](N)C1 | influenza virus | viral cytopathic effect, MTT | MDCK | 72 h |  | EC50 | 0.13 µM
C[C@H]1CN(c2n[nH]c3nc(N[C@H]4CC[C@H](NS(=O)(=O)CCC(F)(F)F)CC4)ncc23)CCO1 | IGF2BP3 (Homo sapiens, UniProt O00425) | inhibitor, Kinobeads competition profiling |  | 0.8 µM | relative to: vehicle | relative abundance | 1.46
O=C(NNc1cc(F)ccc1F)c1nnc(CC23CC4CC(CC(C4)C2)C3)o1 | Fusarium graminearum | fungal growth, inhibitor |  |  |  | EC50 | 1.6 ± 0.09 µg/mL
Nc1nc(O)c2ncn(COC(CO)CO)c2n1 | vesicular stomatitis virus | viral replication | HEL |  |  | EC50 | > 100 µM
Cc1ccc(NNC(=O)c2nnc(CC34CC5CC(CC(C5)C3)C4)o2)cc1 | Fusarium graminearum | fungal growth, inhibitor |  | 50 µg/mL |  | inhibition | 47.9 ± 2.3%
NC(=O)c1nnn([C@@H]2C(F)=C(CO)[C@@H](O)[C@H]2O)c1N | influenza virus | viral cytopathic effect, MTT | MDCK | 72 h |  | EC50 | > 100 µM
O=C(NNc1cccc(Cl)c1)c1nnc(C23CC4CC(CC(C4)C2)C3)o1 | Fusarium graminearum | fungal growth, inhibitor |  |  |  | EC50 | 3.77 ± 0.28 µg/mL
OC(Cn1cncn1)(Cn1cncn1)c1ccc(F)cc1F | Sporothrix schenckii | broth microdilution | CFP 00746 | 50% inhibition endpoint |  | MIC | 64 µg/mL

A few entries again:
Structure (SMILES) | tested on | test | test system | setting | how to read | measurement | value
CS(=O)(=O)Nc1ncn(-c2cc(F)c(COc3ccc(OS(=O)(=O)F)cc3)c(F)c2)n1 | Mycobacterium tuberculosis |  | NIH_G36, drug-resistant, lineage 2 |  |  | MIC | 9.8 nM
Nc1ccn(C[C@@H](CO)OCP(=O)(O)O)c(=O)n1 | vesicular stomatitis virus | viral replication | HEL |  |  | EC50 | > 250 µM
